Measured values of several laboratories.
Compare with care: the assays were run in different laboratories.

SMILES	system	setting	AUC(0-t)
N#CCCC1CCN(C(=S)c2ccc(-c3cc(Cl)ccc3Cl)o2)CC1	male BALB/c mouse, plasma	oral, 10 mg/kg	6.39 ng·h/mL
CC(C)NC(=O)NC1CC=C(c2cc3c(Nc4cc5ncsc5cc4F)ncnc3s2)CC1 (racemic)	mouse, plasma	intravenous, 10 mg/kg	16800 ng·h/mL
CCOC(=O)c1nc2cc(Cl)c(Cl)cc2nc1N1CCN(C(=O)Nc2ccc(N3CCNCC3)cc2)CC1	male mouse, plasma	intravenous, 3 mg/kg	676 ng·h/mL
Cc1cc(NC(=O)[C@H](O)c2cc(F)cc(F)c2)ccc1-c1cnc(N)c(C(=O)NC(C)C)c1	female nude mouse, plasma	oral, 50 mg/kg, single dose	39400 ng·h/mL
CCC(=O)NC1CC=C(c2cc3c(Nc4cc5ncsc5cc4F)ncnc3s2)CC1 (racemic)	mouse, plasma	intravenous, 10 mg/kg	23400 ng·h/mL
CC(=O)N1c2ccc(-c3ccc(CNC(=O)c4cn5cc(-c6cnc(N)nc6)nc(N6CCOCC6)c5n4)cc3)cc2CC[C@@H]1C	female C57BL/6 mouse, plasma	intraperitoneal, 45 mg/kg, single dose	165 µM·h
O=C(C1CC1)N1CCC=C(c2cc3c(Nc4cc5ncsc5cc4F)ncnc3s2)C1	mouse, plasma	oral, 10 mg/kg	8340 ng·h/mL
O=C(OC(C(F)(F)F)C(F)(F)F)N1CCC(CNS(=O)(=O)c2ccc(Cl)cc2)CC1	male SCID mouse, brain	oral, 30 mg/kg, single dose	123000 ng·h/mL
O=C(NCCCCc1ccccc1)n1c(=O)oc2cc(-c3ccc(F)cc3)ccc21	CD-1 mouse, plasma	intraperitoneal, 10 mg/kg	5170 ng·h/mL
OCCn1nc(-c2ccccc2)c2c(Cl)c(-c3ccccc3)nnc21	mouse, plasma	intraperitoneal, 10 mg/kg	0.57 µM·h
CC(C)(C)c1cnc(CSc2cnc(NC(=O)C3CCN(C(=O)CCCCCCCN4Cc5cc6c(cc5C4)C(=O)N(C4CCC(=O)NC4=O)C6=O)CC3)s2)o1 (stereo not shown)	mouse, plasma	intravenous, 2 mg/kg	116 ng·h/mL
Cn1c2cc([S+](C)[O-])sc2c2cnn(Cc3cccc(N)c3)c(=O)c21 (stereo not shown)	male BALB/c mouse, plasma	intraperitoneal, 50 mg/kg, single dose	131000 ng·h/mL
COC(=O)C1=CNC=C(C(=O)OC)C1c1ccc(F)c(C(F)(F)F)c1	male C57BL/6 mouse, plasma	intravenous, 2 mg/kg	1340 ng·h/mL
CCn1cc(-c2cc(Cn3ccnc3)cc3c2CCN([C@H](c2cc(OC)ccn2)C2CC2)C3=O)c(C(F)(F)F)n1	male CD-1 mouse, plasma	intravenous, 3 mg/kg	2560 ng·h/mL
Cc1ncsc1-c1ccc(CNC(=O)[C@@H]2C[C@@H](O)CN2C(=O)[C@@H](NC(=O)COCC(C)(COCCOCCOCCNC(=O)C[C@@H]2N=C(c3ccc(Cl)cc3)c3c(sc(C)c3C)-n3c(C)nnc32)COCCOCCOCCNC(=O)C[C@@H]2N=C(c3ccc(Cl)cc3)c3c(sc(C)c3C)-n3c(C)nnc32)C(C)(C)C)cc1	male C57BL/6 mouse, plasma	intravenous, 5 mg/kg, single dose	26300 ng·h/mL
CC[C@H](C)[C@@H]1NC(=O)[C@@](C)(NC(=O)[C@H](CCCNC(=N)N)NC(=O)[C@H](CC(C)C)NC(=O)[C@]2(C)CCCC=CCCC[C@](C)(NC(C)=O)C(=O)N[C@@H](CC(C)C)C(=O)N[C@@H](CCC(N)=O)C(=O)N2)CCCC=CCCC[C@@](C)(C(=O)N[C@@H](CC(C)C)C(=O)N[C@@H](Cc2ccc3ccccc3c2)C(=O)NCCC(=O)NCCC(N)=O)NC(=O)[C@H](CCCNC(=N)N)NC(=O)[C@H](CCC(N)=O)NC1=O	male BALB/c mouse, plasma	intraperitoneal, 30 mg/kg	987000 ng·h/mL
COC1C=COC2(C)Oc3c(C)c(O)c4c(c3C2=O)C2=NC3(CCN(CC(C)C)CC3)NC2=C(NC(=O)C(C)=CC=CC(C)C(O)C(C)C(O)C(C)C(OC(=O)c2cncnc2)C1C)C4=O (stereo not shown)	female CD-1 mouse, plasma	oral, 10 mg/kg	33900 ng·h/mL
COc1ccccc1/C=C/CNCC(O)COc1ccc(Nc2ccccc2)cc1 (racemic)	mouse, plasma	intraperitoneal, 10 mg/kg	1040 ng·h/mL
COc1ccc2nc(NC(c3ccc(O)cc3)P(=O)(OC)OC)sc2c1 (stereo not shown)	mouse, plasma	intravenous, 10 mg/kg	2860 ng·h/mL
CC(=O)N1CCC=C(c2cc3c(Nc4cc5ncsc5cc4F)ncnc3s2)C1	mouse, plasma	oral, 10 mg/kg	12500 ng·h/mL
COC1C=COC2(C)Oc3c(C)c(O)c4c(c3C2=O)C2=NC3(CCN(CC(C)C)CC3)NC2=C(NC(=O)C(C)=CC=CC(C)C(O)C(C)C(O)C(C)C(OC(=O)Nc2cnccn2)C1C)C4=O (stereo not shown)	female CD-1 mouse, plasma	oral, 10 mg/kg	55100 ng·h/mL
C[C@@H](Nc1nc2c(cnn2C(C)(C)C)c(=O)n1Cc1cccc(F)c1)c1ccc(Cl)cc1	C57BL/6 mouse, plasma	oral, 5 mg/kg	1660 ng·h/mL
C[C@@]1(c2nc(-c3ccc(F)c4cn[nH]c34)no2)CCCN(C(=O)c2ccc(F)nc2)C1	male C57BL/6 mouse, plasma	intraperitoneal, 20 mg/kg	11500 ng·h/mL
COc1cnc2cccc(N3CCc4c(cc(Cn5ccnc5)cc4-c4cn(C)nc4C(F)(F)F)C3=O)c2c1	male CD-1 mouse, plasma	intraperitoneal, 50 mg/kg	77500 ng·h/mL
Cc1cc(NCCOC(C)C)c2nc(N3CCOC[C@H]3C)cc(=O)n2c1	C57BL/6 mouse, plasma	intraperitoneal, 10 mg/kg, single dose	16500 ng·h/mL
O=C(O)c1ccc(/C=C2\SC(=S)N(Cc3cccc(C(F)(F)F)c3)C2=O)cc1	C57BL/6 mouse, blood	oral, 10 mg/kg	8180 ng·h/mL
CCC(=O)N1CCC=C(c2cc3c(Nc4cc5ncsc5cc4F)ncnc3s2)C1	mouse, plasma	intravenous, 10 mg/kg	13100 ng·h/mL
COC1C=COC2(C)Oc3c(C)c(O)c4c(c3C2=O)C2=NC3(CCN(CC(C)C)CC3)NC2=C(NC(=O)C(C)=CC=CC(C)C(O)C(C)C(O)C(C)C(OC(=O)c2cccnc2)C1C)C4=O (stereo not shown)	female CD-1 mouse, plasma	oral, 10 mg/kg	43900 ng·h/mL

For quick reference, copied from above:
SMILES	system	setting	AUC(0-t)
Cn1c2cc([S+](C)[O-])sc2c2cnn(Cc3cccc(N)c3)c(=O)c21 (stereo not shown)	male BALB/c mouse, plasma	intraperitoneal, 50 mg/kg, single dose	131000 ng·h/mL
CCC(=O)N1CCC=C(c2cc3c(Nc4cc5ncsc5cc4F)ncnc3s2)C1	mouse, plasma	intravenous, 10 mg/kg	13100 ng·h/mL
COC1C=COC2(C)Oc3c(C)c(O)c4c(c3C2=O)C2=NC3(CCN(CC(C)C)CC3)NC2=C(NC(=O)C(C)=CC=CC(C)C(O)C(C)C(O)C(C)C(OC(=O)c2cccnc2)C1C)C4=O (stereo not shown)	female CD-1 mouse, plasma	oral, 10 mg/kg	43900 ng·h/mL
Cc1cc(NC(=O)[C@H](O)c2cc(F)cc(F)c2)ccc1-c1cnc(N)c(C(=O)NC(C)C)c1	female nude mouse, plasma	oral, 50 mg/kg, single dose	39400 ng·h/mL
